# Assay results of several laboratories.
# Compare with care: the assays were run in different laboratories. Several values in a cell are separate wells, animals, samples, runs or records. Numbers after ± are the reported error.
Structure (SMILES),assay,test system,conditions,scale,endpoint,value
CC[C@H](C)[C@H](NC(=O)[C@H](CCCCN)NC(C)=O)C(=O)N[C@@H](C)C(=O)N[C@@H](C)C(=O)N[C@@H](CC(C)C)C(=O)N[C@@H](CCCCN)C(=O)N[C@@H](CCC(=O)O)C(=O)N[C@@H](CCCCN)C(=O)N[C@H](C(=O)N[C@H]1CSCc2cccc(c2)CSC[C@@H](C(=O)N[C@@H](CCCCN)C(=O)N[C@H](C(=O)N[C@@H](C)C(=O)N[C@@H](C)C(=O)N[C@@H](CC(C)C)C(=O)N[C@@H](CCCCN)C(=O)N[C@@H](CCC(=O)O)C(=O)NCC(=O)N[C@@H](Cc2c[nH]c3ccccc23)C(N)=O)[C@@H](C)CC)NC(=O)[C@H](CCCCN)NC(=O)[C@H](CC(C)C)NC(=O)[C@H](C)NC1=O)[C@@H](C)CC,circular dichroism at 222 nm,PBS,"pH 7.4, 20 °C, single peptide 50 µM total",,helicity,45%
COc1cccc(OC)c1-c1cc(C(=O)NC2(C(=O)O)C3CC4CC(C3)CC2C4)nn1-c1ccc(C(=O)N(C)CCOCCN(C)C(=O)[C@H](CCCCNC(=O)[C@H](CC(C)C)NC(=O)C2OC2C(=O)O)NC(=O)CN2CCN(CC(=O)[O-])CCN(CC(=O)[O-])CCN(CC(=O)[O-])CC2)cc1C(C)C.[177Lu+3] (mixture of isomers),,mouse HT-29 xenograft,"4 h, biodistribution",reference: tumour over small intestine,tumour-to-small intestine ratio,6.64
CNCc1ccc(-c2cc(=O)c3ccc4[nH]c(C(F)(F)F)nc4c3o2)cc1,,"ICR mice, plasma","oral, 5 mg/kg",,AUC,405 ng·h/mL
C=C(NC(=O)c1csc(-c2nc3c(cc2O)-c2nc(cs2)C(=O)NC(C(C)O)C(=O)NC(=C(C)OC)c2nc(cs2)C(=O)NC2c4nc(cs4)C(=O)NC(COC(=O)c4c5c6c(cccc6n4O)COC(=O)C(OC4CC(C)(O)C(N(C)C)C(C)O4)C2OC5)c2nc-3cs2)n1)C(N)=O (stereo not drawn),,"ICR mice, Streptococcus pneumoniae ATCC 49169 infected, immunocompromised, blood","intravenous, 2 mg/kg once daily",,AUC(0-t),0.036 µM·h
O=C(Nc1cnccc1-c1ccc([18F])cc1)c1ccnc(NC(=O)C2CC2)c1,ex vivo gamma counting,"GSK-3β transgenic mice, early-stage, cecum","intravenous, 120 min",,mean SUV,8.49
CN([O-])C(=O)CN1CCN(CC(=O)N(C)[O-])CCN(Cc2ccccn2)CC1.[89Zr+4],,"mouse, spleen","intravenous, 1 h",,tracer uptake,0.56 %ID/g
O=C(O)CCCOc1ccc([18F])cc1-c1cc(-c2ccccc2C(F)(F)F)n(-c2ccccc2)n1,,"mouse, urine","intravenous, dose not given, 180 min",,tissue uptake,0.25 ± 0.1 %ID/g
CC1Cc2ccccc2N1C(=O)CN1CCN(Cc2ccccc2)CC1 (stereo not drawn),,"female NMRI mice, brain","intraperitoneal, 10 mg/kg free base, 15 min",,concentration,1420 ng/mL and 1940 ng/mL
C=CC(=O)Nc1cc(Nc2nccc(-c3cn(C)c4ccccc34)n2)c(OC)cc1N(C)CCNC,storage stability,human plasma,"5 h, -80 °C, medium QC level",,recovery,95.5%
Cc1ccc(CN2C(=O)/C(=N\c3ccc(Cl)cc3Br)c3ccccc32)cc1,,"mouse, blood",150 mg/kg,,Lym%,56.9 ± 5.46%
C=C[C@]1(C)C[C@@H](OC(=O)CSc2ccc(NC(=O)c3ccco3)cc2)[C@]2(C)[C@H](C)CC[C@]3(CCC(=O)[C@H]32)[C@@H](C)[C@@H]1O,,chickens,40 to 80 mg/kg,,%T>MIC,100%
CCC(CC)n1c(Cc2ccco2)nc2cc(C(=O)N[C@@H](CC(=O)O)c3ccccc3)ccc21,,"male Sprague-Dawley rat, plasma","intraperitoneal, 10 mg/kg",,Cmax,2540 ng/mL

# Excerpt of the above:
Structure (SMILES),assay,test system,conditions,scale,endpoint,value
C=CC(=O)Nc1cc(Nc2nccc(-c3cn(C)c4ccccc34)n2)c(OC)cc1N(C)CCNC,storage stability,human plasma,"5 h, -80 °C, medium QC level",,recovery,95.5%
